Assay results from different studies.
“And” joins repeats or separate records; there may be more than shown. ± gives the spread as reported.
lecA: PA-I galactophilic lectin (lecA, Pseudomonas aeruginosa, UniProt Q05097)
Complement C3 C3b fragment: Complement C3, C3b fragment (Homo sapiens, UniProt P01024)
Histone chaperone ASF1A: Histone chaperone ASF1A (Homo sapiens, UniProt Q9Y294)

The tumour uptake of `CCc1cc(C)nc2c(CC(=O)N(CC)CC)c(-c3ccc(OCC[18F])cc3)nn12` is reported as 0.2 %ID/cc (Translocator protein (Tspo, Rattus norvegicus, UniProt P16257); PET; rat, C6 glioma, tumour; last 30 min of scan).
`CC1CN(S(=O)(=O)c2ccc(C=O)cc2)CC(C)O1` (stereo not drawn) has a stabilisation factor of 8 (YWHAG/RELA (Homo sapiens, UniProt P61981+Q04206); 14-3-3/p65 binding stabilisation, fluorescence anisotropy; 1 mM, added: FITC-labelled bivalent p65 peptide; relative to: DMSO control).
`COC(=O)C1=Cc2ccccc2S1(=O)=O`: autoubiquitination “inhibited” (E3 ubiquitin-protein ligase RNF5, RING domain (Homo sapiens, UniProt Q99942); inhibitor; 0, 5, 10 µM, 30 min, 30 °C, RNF5 N-terminal domain).
`CC[C@H](C)[C@H](NC(=O)[C@H](CO)NC(=O)[C@H](Cc1ccc(O)cc1)NC(=O)[C@H](CC(=O)O)NC(=O)[C@H](CO)NC(=O)[C@@H](NC(=O)[C@H](Cc1ccccc1)NC(=O)[C@@H](NC(=O)CNC(=O)[C@@H]1CCCN1C(=O)[C@H](C)NC(=O)[C@@H](N)Cc1ccc(O)cc1)[C@@H](C)O)[C@@H](C)CC)C(=O)N[C@@H](C)C(=O)N[C@@H](CCSC)C(=O)N[C@@H](CC(=O)O)C(=O)N[C@@H](CCCCN)C(=O)N[C@H](C(=O)N[C@@H](CCCNC(=N)N)C(=O)N[C@@H](CCC(N)=O)C(=O)N[C@@H](CCC(N)=O)C(=O)N[C@@H](CC(=O)O)C(=O)N[C@@H](Cc1ccccc1)C(=O)N[C@H](C(=O)N[C@@H](CC(N)=O)C(=O)N[C@@H](Cc1c[nH]c2ccccc12)C(=O)N[C@@H](CC(C)C)C(=O)N[C@@H](CC(C)C)C(=O)N[C@@H](C)C(=O)N[C@@H](CCC(N)=O)C(=O)N[C@@H](CCCNC(=N)N)C(=O)NCC(=O)N[C@@H](CCCCN)C(=O)N[C@@H](CCCCN)C(=O)N[C@@H](CO)C(=O)N[C@@H](CC(=O)O)C(=O)N[C@@H](Cc1c[nH]c2ccccc12)C(=O)N[C@@H](CCCCN)C(=O)N[C@@H](Cc1c[nH]cn1)C(=O)N[C@@H](CC(N)=O)C(=O)N[C@H](C(=O)N[C@H](C(=O)N[C@@H](CCC(N)=O)C(=O)O)[C@@H](C)O)[C@@H](C)CC)C(C)C)[C@@H](C)CC` has an Emax of 61% (Gastric inhibitory polypeptide receptor (Rattus norvegicus, UniProt P43219); cAMP, agonist; COS-7).
For `COCCOCCOc1cc(-c2cn([C@H]3[C@H](O)[C@@H](O)[C@H](n4cc(-c5ccc(O[C@@H]6O[C@H](CO)[C@H](O)[C@H](O)[C@H]6O)cc5)nn4)O[C@@H]3CO)nn2)c(OCCOCCOC)cc1-c1cn([C@H]2[C@H](O)[C@@H](O)[C@H](n3cc(-c4ccc(O[C@@H]5O[C@H](CO)[C@H](O)[C@H](O)[C@H]5O)cc4)nn3)O[C@@H]2CO)nn1`, the ΔG was -9.9 ± 0.2 kcal/mol (lecA; ITC; 5% DMSO).
`C=C1CCN2C(=O)COc3cccc(c3)C(CCc3ccc(OC)c(OC)c3)OC(=O)C3CCCCN3C(=O)C(=O)C(C)(C)COC(=O)C(C(F)(F)F)NC(=O)C2C1` (stereo not drawn) has an Emax of 27% (FKBP1A/MAPRE1 (Homo sapiens, UniProt P62942+Q15691); FKBP12-MAPRE1 proximity, TR-FRET; relative to: DMSO).
For `CC[C@H](C)[C@H](NC(=O)[C@@H]1CSSC[C@H](NC(=O)[C@@H](NC(C)=O)[C@@H](C)CC)C(=O)N[C@@H](C(C)C)C(=O)N[C@@H](Cc2cn(C)c3ccccc23)C(=O)N[C@@H](CCC(N)=O)C(=O)N[C@@H](CC(=O)O)C(=O)N[C@@H](Cc2c[nH]c3ccccc23)C(=O)NCC(=O)N[C@@H](C)C(=O)N[C@@H](Cc2c[nH]cn2)C(=O)N[C@@H](CCCNC(=N)N)C(=O)N1)C(N)=O`, “relative association rate constant” read 1 (Complement C3 C3b fragment; SPR; 25 °C; relative to: [Trp(Me)4]-Ac-compstatin).
The −TΔS of `Clc1ccc2ccc3[n+](c2c1)[Ir-3]12([c]4ccccc4-3)([c]3ccccc3-c3ccc4ccc(Cl)cc4[n+]31)[n+]1ccccc1-c1cccc[n+]12.F[P-](F)(F)(F)(F)F` is reported as 13.8 kcal/mol (Cyclin-dependent kinase 9 (CDK9, Homo sapiens, UniProt P50750); isothermal titration calorimetry; 25 °C).
`CC[C@H](C)[C@H](NC(=O)[C@H](CCCNC(=N)N)NC(=O)NC[C@H](CCC(N)=O)NC(=O)NC[C@H](CCc1ccccc1)NC(=O)NC[C@H](CCCNC(=N)N)NC(=O)NC[C@H](Cc1ccc2ccccc2c1)NC(=O)[C@H](CCCCN)NC(=O)[C@H](CCC(=O)O)NC(C)=O)C(=O)N[C@@H](C)C(N)=O` gave a -TΔS of -4.4 ± 0.4 kcal/mol (Histone chaperone ASF1A; isothermal titration calorimetry; pH 7.5, 20 °C).
For `O=c1c(-c2cnn(-c3ccccc3)c2)c(C(F)(F)F)oc2c(O)c(O)ccc12`, the inhibitory concentration was 30 µM (Cullin-4A, in CRL4-CRBN complex (CUL4A, Homo sapiens, UniProt Q13619); CK1α ubiquitination by CRL4-CRBN, inhibitor).
`CCCCCCCC/C=C\CCCCCCCC(=O)NC(CO)CO` — result for cAMP level: “increased” (Glucose-dependent insulinotropic receptor (GPR119, Homo sapiens, UniProt Q8TDV5); agonist; HEK293 stably transfected with GPR119; concentration not given; relative to: untransfected cells).
For `O=C1c2ccc(O)cc2O[C@@H](c2ccc(O)cc2)[C@@H]1[C@@H]1C(=O)c2ccc(O)cc2O[C@H]1c1ccc(O)cc1`, the Hill coefficient was 1.22 (laccase (Trametes versicolor); substrate, Hill kinetic model; product formation).
For `NC[C@@H]1O[C@H](O[C@H]2[C@@H](O)[C@H](O[C@@H]3[C@@H](O)[C@H](N)C[C@H](N)[C@H]3O[C@H]3O[C@H](CN)[C@@H](O)[C@H](O)[C@H]3N)O[C@@H]2CO)[C@H](N)[C@@H](O)[C@@H]1O`, “heat capacity change” read -87 ± 4 cal/(mol·K) (poly(dA)·2poly(dT) triplex; ITC; concentration not given, pH 5.5, KCl 140 mM).
`O=C(NCC1CO1)Oc1ccc([N+](=O)[O-])cc1` (racemic) — result for “signal to background ratio”: 1 (Epoxide hydrolase 1 (Ephx1, Rattus norvegicus, UniProt P07687); substrate, absorbance; 50 µM, pH 9.0, 37 °C, rat enzyme).
`O=C(NC1CCCCC1C(=O)O)c1cnn2c(O)cc(-c3ccccc3)nc12` (stereo not drawn): binding “no binding” (Cyclic GMP-AMP synthase (CGAS, Homo sapiens, UniProt Q8N884); surface plasmon resonance; concentration not given, added: ATP).
For `C#Cc1ccc(O[C@@H]2O[C@H](CO)[C@H](O)[C@H](O)[C@H]2O)cc1`, the ΔG was -7 ± 0.1 kcal/mol (lecA; ITC; 5% DMSO).
For `COC(=O)[C@H](C)NC(=O)[C@H](C)NC(=O)[C@H](CCCCNC(C)=S)NC(=O)c1ccc(C(=O)c2ccc(OC/C=C/Cn3cc(COCCOCCOc4cccc5c4C(=O)N(C4CCC(=O)NC4=O)C5=O)nn3)cc2)cc1` (stereo partly drawn), protein level read “decreased” (NAD-dependent protein deacetylase sirtuin-2 (SIRT2, Homo sapiens, UniProt Q8IXJ6); protein degradation, degrader, western blot, measured: SIRT2; HEK293; 25 µM, 12 h).
For `COc1cc(-c2ncn(/C=C\C(=O)OC(C)C)n2)cc(C(F)(F)F)c1`, “concentration for complete inhibition” read 5 µM (Exportin-1 (CRM1, Saccharomyces cerevisiae, UniProt P30822, del377-413/T539C); NES binding, pull-down; 90 min, 4 °C, added: 2 µM protein, 10 µM RanGTP).
Under “dissociation rate constant”, `CNc1ccccc1C(=O)O[C@H]1C[C@H](n2cnc3c(N)ncnc32)O[C@@H]1COP(=O)(O)OP(=O)(O)O` is recorded as 108.9 ± 0.8 s⁻¹ (Unconventional myosin-Va (Gallus gallus, UniProt Q02440, D297C/G292C/I296C/S293C/V295G); stopped-flow FRET; 25 °C, added: EDTA 4 mM).
With `CC[C@H](C)[C@H](NC(C)=O)C(=O)N[C@H]1CSSC[C@@H](C(=O)N[C@H](C(N)=O)[C@@H](C)O)NC(=O)[C@H](CCCNC(=N)N)NC(=O)[C@H](Cc2c[nH]cn2)NC(=O)[C@H](C)NC(=O)CNC(=O)[C@H](Cc2c[nH]c3ccccc23)NC(=O)[C@H](CC(=O)O)NC(=O)[C@H](CCC(N)=O)NC(=O)[C@H](Cc2ccc(O)cc2)NC(=O)[C@H](C(C)C)NC1=O` the kon was 410000 ± 220000 M⁻¹ s⁻¹ (Complement C3 C3b fragment; SPR; pH 7.4, 25 °C).
With `CC[C@H](C)[C@H](NC(=O)[C@H](CCCNC(=N)N)NC(=O)[C@H](CCCNC(=N)N)NC(=O)[C@H](C)NC(=O)[C@H](CC(C)C)NC(=O)[C@H](CCCNC(=N)N)NC(=O)[C@H](C)NC(=O)[C@H](Cc1c[nH]c2ccccc12)NC(=O)[C@H](CCCCN)NC(=O)[C@H](CCC(=O)O)NC(C)=O)C(=O)N[C@@H](C)C(=O)NCC(N)=O` the binding enthalpy was -10.3 ± 0.6 kcal/mol (Histone chaperone ASF1A; isothermal titration calorimetry; concentration not given, pH 7.5, 20 °C).
The remaining activity of `CC1(C)CCN(Cc2ccc(C(=O)NC[C@]3(O)CCCN(c4cc(NCc5ccccc5)ncn4)C3)c(O)c2)CC1` is reported as 89% and 88% (Histone-lysine N-methyltransferase 2B, complex (KMT2B, Homo sapiens, UniProt Q9UMN6); radiometric; 10 µM, added: 1 µM SAM).
Under “binding free energy decrease”, `COc1cc(C2CC(=O)Nc3nc(N)[nH]c(=O)c32)ccc1O` (stereo not drawn) is recorded as 0.2 to 0.5 kcal/mol (uncharacterized protein (Leishmania donovani, UniProt A0A3Q8IA09); competitive vs direct ITC; added: aspartate or glutamate).
`O=C(COCCc1ccccc1)N[C@@H](Cc1cn(CCNC(=O)c2ccc(S[C@@H]3O[C@H](CO)[C@H](O)[C@H](O)[C@H]3O)cc2)nn1)C(=O)NCCO` has a binding stoichiometry of 1 ± 0.1 (lecA; isothermal titration calorimetry; concentration not given).

A few entries again:
For `COCCOCCOc1cc(-c2cn([C@H]3[C@H](O)[C@@H](O)[C@H](n4cc(-c5ccc(O[C@@H]6O[C@H](CO)[C@H](O)[C@H](O)[C@H]6O)cc5)nn4)O[C@@H]3CO)nn2)c(OCCOCCOC)cc1-c1cn([C@H]2[C@H](O)[C@@H](O)[C@H](n3cc(-c4ccc(O[C@@H]5O[C@H](CO)[C@H](O)[C@H](O)[C@H]5O)cc4)nn3)O[C@@H]2CO)nn1`, the ΔG was -9.9 ± 0.2 kcal/mol (lecA; ITC; 5% DMSO).
For `C#Cc1ccc(O[C@@H]2O[C@H](CO)[C@H](O)[C@H](O)[C@H]2O)cc1`, the ΔG was -7 ± 0.1 kcal/mol (lecA; ITC; 5% DMSO).
Under “dissociation rate constant”, `CNc1ccccc1C(=O)O[C@H]1C[C@H](n2cnc3c(N)ncnc32)O[C@@H]1COP(=O)(O)OP(=O)(O)O` is recorded as 108.9 ± 0.8 s⁻¹ (Unconventional myosin-Va (Gallus gallus, UniProt Q02440, D297C/G292C/I296C/S293C/V295G); stopped-flow FRET; 25 °C, added: EDTA 4 mM).
For `NC[C@@H]1O[C@H](O[C@H]2[C@@H](O)[C@H](O[C@@H]3[C@@H](O)[C@H](N)C[C@H](N)[C@H]3O[C@H]3O[C@H](CN)[C@@H](O)[C@H](O)[C@H]3N)O[C@@H]2CO)[C@H](N)[C@@H](O)[C@@H]1O`, “heat capacity change” read -87 ± 4 cal/(mol·K) (poly(dA)·2poly(dT) triplex; ITC; concentration not given, pH 5.5, KCl 140 mM).
